# Measured values from different studies.
# Every numbered part comes from another study and shows a few of its results, in no order.

# Block 1
# Target: Prothrombin, mature alpha-thrombin (F2, Homo sapiens, UniProt P00734)
# Method: aptamer microarray, sandwich
# Molecule type: DNA with 2'F-ANA
# Matrix: in vitro
# Tested at: 200 nM
# Notes: whole 15-mer aptamer, many near background
# Added: Cy3 exosite-II aptamer, 400 nM
# Reading: higher = stronger binding
# Strand: GGTTGGTGTGGTTGG
Modification,mean fluorescence intensity [a.u.]
2'F-ANA at 1 2 4 5 7 8 11 12 15,77.2
2'F-ANA at 1 6 8 11 13 15,141
2'F-ANA at 2 3 4 5 8 9 11 12,166
2'F-ANA at 1 2 3 7 9 11 12 13 15,277
2'F-ANA at 1 2 3 5 7 8 9 12 13 14,60.6
2'F-ANA at 2 4 5 6 7 8 9 10 12 13 14 15,50.4
2'F-ANA at 4 7 10 12,127
2'F-ANA at 1 2 5 9 12 13 14,42.4
2'F-ANA at 1 3 4 5 6 8 10 12,56
2'F-ANA at 2 4 13,232
2'F-ANA at 1 2 3 9 11 12 13 15,331
2'F-ANA at 1 5 6 7 9 13 14 15,64.3
2'F-ANA at 3 4 6 8 9 11 12 13,598
2'F-ANA at 2 5 7 8 11 14 15,47.6
2'F-ANA at 5 7 8 10 11 12 14 15,57
2'F-ANA at 2 5 6 7 8 9 11 12 13 14 15,59.3

# Block 2
# Target: Sal-like protein 4, full length isoform A (SALL4, Homo sapiens, UniProt Q9UJQ4, residues 1-1053)
# UniProt Q9UJQ4, sequence (whole entry, looked up): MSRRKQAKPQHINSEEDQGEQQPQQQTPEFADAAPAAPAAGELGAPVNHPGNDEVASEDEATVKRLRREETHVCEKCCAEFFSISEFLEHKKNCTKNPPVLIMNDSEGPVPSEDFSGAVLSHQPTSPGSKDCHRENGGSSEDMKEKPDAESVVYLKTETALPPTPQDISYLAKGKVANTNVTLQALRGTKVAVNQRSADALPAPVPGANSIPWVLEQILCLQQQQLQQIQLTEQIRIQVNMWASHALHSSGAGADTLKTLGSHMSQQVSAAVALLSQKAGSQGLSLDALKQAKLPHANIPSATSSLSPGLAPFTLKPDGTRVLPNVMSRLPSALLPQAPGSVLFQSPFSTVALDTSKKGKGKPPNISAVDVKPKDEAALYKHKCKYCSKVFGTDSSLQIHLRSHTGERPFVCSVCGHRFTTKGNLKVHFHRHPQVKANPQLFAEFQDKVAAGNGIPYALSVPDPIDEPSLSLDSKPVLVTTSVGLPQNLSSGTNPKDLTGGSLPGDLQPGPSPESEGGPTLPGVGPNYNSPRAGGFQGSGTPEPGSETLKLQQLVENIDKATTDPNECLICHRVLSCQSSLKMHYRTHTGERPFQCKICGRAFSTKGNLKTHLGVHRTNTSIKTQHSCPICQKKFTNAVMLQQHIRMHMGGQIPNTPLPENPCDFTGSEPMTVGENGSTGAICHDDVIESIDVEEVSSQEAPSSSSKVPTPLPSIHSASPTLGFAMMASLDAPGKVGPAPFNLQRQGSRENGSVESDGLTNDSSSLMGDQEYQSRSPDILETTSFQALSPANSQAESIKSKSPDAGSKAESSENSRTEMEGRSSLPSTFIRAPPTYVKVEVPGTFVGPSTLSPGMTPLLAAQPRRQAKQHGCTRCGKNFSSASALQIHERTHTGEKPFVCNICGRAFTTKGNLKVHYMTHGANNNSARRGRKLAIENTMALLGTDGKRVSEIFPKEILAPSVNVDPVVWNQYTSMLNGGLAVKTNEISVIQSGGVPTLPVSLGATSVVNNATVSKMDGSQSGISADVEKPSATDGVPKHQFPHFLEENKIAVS
# Method: universal PBM
# Molecule type: double-stranded DNA, one strand shown
# Matrix: in vitro
# Tested at: 600 nM
# Notes: 8-mer, flanks averaged, mean of replicates
# Reading: higher = stronger binding
Strand,E-score
AGGCCAAC,-0.222
AAGATGCC,-0.0981
CTCATTGC,0.0656
CCCTCCGG,-0.4
AATCGACG,-0.0251
ATGATTCC,0.276
ACGTATTA,0.319
TATGCCCA,-0.0248
CGCAAGGA,-0.22
GGCCCAAA,-0.249
GATTGTCA,0.191
GACTAAGC,-0.147
GGAGGGAC,-0.24
TAAGCCAA,0.13
AGCGAACG,-0.308
ATTCCCGG,-0.0556
CAAACTAA,0.225
AATAGCCG,-0.0169
ATAGTCTA,0.181

# Block 3
# Target: Histone acetyltransferase KAT6A, both winged helices, GST fusion (KAT6A, Homo sapiens, UniProt Q92794, residues 1-181)
# Method: protein binding microarray
# Molecule type: double-stranded DNA, one strand shown
# Matrix: in vitro
# Tested at: not given
# Notes: 8-mer, flanks averaged, mean of 2 arrays, mostly near background
# Baseline: not given
# Reading: higher = stronger binding
# Construct (chain): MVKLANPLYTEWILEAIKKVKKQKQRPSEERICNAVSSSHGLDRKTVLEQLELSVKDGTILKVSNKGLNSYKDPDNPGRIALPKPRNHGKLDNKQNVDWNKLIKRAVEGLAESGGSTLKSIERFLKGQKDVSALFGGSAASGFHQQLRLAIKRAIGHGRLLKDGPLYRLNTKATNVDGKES
Strand,E-score
CCACGGAC,0.166
CATAGAAC,-0.0939
AACTAGCT,-0.00634
AGCGGGGG,0.016
ATCATTGA,0.0364
GACGAAAC,0.0276
CGTAACGC,0.243
CCGAGCGA,0.215
CCGGTGTC,0.0827
GCTGATTA,0.0452
CGCACGTA,0.0373
AGTGGGTA,-0.116
CTGGAGGC,-0.119
AAACGACT,-0.118
ATAACGTG,0.0144
TAGGAAAA,-0.0753
AGTGAGAT,-0.0276
AGAGTTGG,-0.227
AGCACTAA,-0.0848
AGCCCCAT,-0.166
AAACGATC,-0.132
ATAATCGC,0.147
ACTCGAGC,-0.174
CGTCTAGA,0.191
AAAAATGT,0.0294

# Block 4
# Target: RING finger protein unkempt homolog, zinc fingers 1-6, GST-SBP tag (UNK, Homo sapiens, UniProt Q9C0B0, residues 30-357)
# UniProt Q9C0B0, sequence (30-357, looked up): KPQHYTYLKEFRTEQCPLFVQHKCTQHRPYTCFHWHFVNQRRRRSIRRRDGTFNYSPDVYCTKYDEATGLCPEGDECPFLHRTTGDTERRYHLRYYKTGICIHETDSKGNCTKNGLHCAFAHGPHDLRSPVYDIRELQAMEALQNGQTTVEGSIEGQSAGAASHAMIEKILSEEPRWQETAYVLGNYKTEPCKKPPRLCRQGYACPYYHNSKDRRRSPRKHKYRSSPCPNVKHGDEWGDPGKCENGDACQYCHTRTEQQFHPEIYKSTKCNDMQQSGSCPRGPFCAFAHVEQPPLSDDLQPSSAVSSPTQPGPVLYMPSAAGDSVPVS
# Method: RNA Bind-n-Seq
# Molecule type: RNA
# Matrix: in vitro
# Tested at: not given
# Notes: RNA with constant flanks, ends assumed
# Baseline: input RNA pool
# Reading: higher = stronger binding
Strand,bound/input enrichment
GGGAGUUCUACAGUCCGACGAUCAAAGAUAGGCUCUAUUGUGAAAAGGAAAAUGACCCCAAACGACGCUCUUGUCAGACUGCAUCCGUUGAAAUUUUGGAUGUAAUAGUUCGUUCUUUUGCUCCCAUUCUUCCUCACCUGGCUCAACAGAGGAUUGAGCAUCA,0.505 ratio
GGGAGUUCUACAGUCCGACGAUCUUUGUUGAAAUACUUGUUCCAGUUGCUGCUGCUGUUAAAAAUGAAGUAAAUGUUCCCUGCCUCCGAAAUUUUGUGGAAAGCCUGUAUGACACCACGCUGGAACUUUCUUCUCGAAAGAAGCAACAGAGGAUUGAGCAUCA,0.474 ratio
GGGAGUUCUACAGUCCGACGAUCAAGAUAAACAGAAUAGACCAUGACCGGAGAGCGAUGGCUACUUUGCUUAGCAAGUUCCGGACCGACUUUUCUGAUAUCAUGGUUCUAGGAGAUAUCAAUACCAAACCAAAGAAAGAAAAUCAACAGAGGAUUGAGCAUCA,0.34 ratio
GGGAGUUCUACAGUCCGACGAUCUCCUUCCCACAUCACAGGGCUACCUUGAGACUCUCCGAGAAGUUUAUCCUUCUCCUCAUCCUCCGUGCCUUCAUCACCCUGUGUUUUGGGGCAUUCUUCUUCCUUCCAGACUCUUCAAAACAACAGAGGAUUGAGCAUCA,0.321 ratio
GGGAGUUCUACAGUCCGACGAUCAAUAAUCUUCAAAAGUAUAUAGAGAUAUAUGUACAGAAGGUGAAUCCAAGUCGACUUCCUGCCGUUAUUGGAGGAUUACUUGAUGUUGACUGUUCUGAAGAUGUCAUAAAAAACUUGAUUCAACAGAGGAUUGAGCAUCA,0.116 ratio
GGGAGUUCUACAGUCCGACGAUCGUUGGAUUUCAUUUCCCCAGGUCUUCAGUGUUGAUGUAAAUGUGUUUUGUAGUGUUGCUCCGCACUUUGCGCAUUGUGUAAGUUGGGUAACAAAAAUGGCAAAAGAAAUGCAGAUUUCCCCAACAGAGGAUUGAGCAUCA,0.255 ratio
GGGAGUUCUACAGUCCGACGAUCGUAGCCUUAUAUGAAGAACCAGAGAAGCCCACCAGUGCUCUGGAUUUUUUAAAGCAUCACUCCGGAGCUGCUACCCCGGAAAACCCAGAAAUAGAGCUGCUUCGCCUAGAAUUGGCAGAACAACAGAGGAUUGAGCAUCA,0.668 ratio
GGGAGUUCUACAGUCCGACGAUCGUGAAGGCUGAGAUACCAUUGAAUGAGCAAACCACUUUAAGUAAGGAGAAUUACCUGUUCACCCGAGGCCAAACAUUUGAUGAAAAGACCCUAGCCAGAGAUUUAAUUCAGGCAGCACAGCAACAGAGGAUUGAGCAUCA,0.318 ratio
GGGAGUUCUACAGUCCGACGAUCUUAGAUUCUGGGAAAUUCCGAGCCUUAGGAUGCAUCUUGUCUGAGUUGAAACAGAAGGGUGACCGAGUUGUAUUAUUCAGCCAGUUUACCAUGAUGCUGGAUAUACUAGAGGUUCUCUUACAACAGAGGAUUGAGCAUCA,0.235 ratio
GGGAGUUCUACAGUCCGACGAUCAAAUAUCCUCAGCUAUUUCAGGUGACACUGGAUGUAGAACUACAGCCCCAUGACAAAGUAACCGACUUAACUCCACCAUGGGAACAUUACUGCACAAAAGAUGUCAAUCCCAGCAUCCUCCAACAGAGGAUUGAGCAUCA,0.23 ratio
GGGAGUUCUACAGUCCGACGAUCUUUUACAAGGGGGACAAAGACAAUAAGUAUGUUCCCUACUCGGAGAGCUUCAGCCAAGUUUCCGAGGAAACUUACAUGCUUGCUGUAACUUUGGAUGAAUGGAAAAAGAAACUGGAAUCUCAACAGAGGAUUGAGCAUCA,0.213 ratio
